# Published values from different studies.
# Every numbered part comes from another study and shows a few of its results, in no order. Values joined by “and” are separate records of one study, mostly repeats; a detail may differ.
# Chain of UniProt P10721 (whole entry, unmodified, looked up): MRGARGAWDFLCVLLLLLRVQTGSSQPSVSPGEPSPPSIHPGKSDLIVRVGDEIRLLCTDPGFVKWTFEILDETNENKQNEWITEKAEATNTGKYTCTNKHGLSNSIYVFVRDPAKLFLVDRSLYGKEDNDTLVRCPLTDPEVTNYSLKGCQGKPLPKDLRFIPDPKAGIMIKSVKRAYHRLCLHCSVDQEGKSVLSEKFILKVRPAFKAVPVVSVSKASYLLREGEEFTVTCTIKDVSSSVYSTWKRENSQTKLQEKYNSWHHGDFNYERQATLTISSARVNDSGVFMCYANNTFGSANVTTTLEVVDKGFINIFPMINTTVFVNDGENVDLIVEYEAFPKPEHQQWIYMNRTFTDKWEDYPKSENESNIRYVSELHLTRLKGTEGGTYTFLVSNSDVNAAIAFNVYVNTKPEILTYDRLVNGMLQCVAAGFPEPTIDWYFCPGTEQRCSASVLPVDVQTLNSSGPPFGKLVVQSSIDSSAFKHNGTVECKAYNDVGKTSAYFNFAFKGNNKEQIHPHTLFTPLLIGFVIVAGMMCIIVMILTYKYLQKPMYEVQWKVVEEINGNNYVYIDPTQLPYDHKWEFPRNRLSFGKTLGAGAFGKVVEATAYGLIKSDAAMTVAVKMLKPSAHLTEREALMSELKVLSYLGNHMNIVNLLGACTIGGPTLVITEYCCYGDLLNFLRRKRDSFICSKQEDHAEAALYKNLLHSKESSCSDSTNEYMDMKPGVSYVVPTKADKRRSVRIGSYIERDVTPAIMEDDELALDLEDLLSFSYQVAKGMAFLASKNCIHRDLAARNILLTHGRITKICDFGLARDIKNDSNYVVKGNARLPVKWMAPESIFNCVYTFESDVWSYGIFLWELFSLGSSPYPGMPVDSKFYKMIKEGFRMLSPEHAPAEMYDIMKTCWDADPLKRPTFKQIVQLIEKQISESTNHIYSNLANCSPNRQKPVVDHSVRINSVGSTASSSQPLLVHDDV
# Chain of UniProt P27361 (whole entry, looked up): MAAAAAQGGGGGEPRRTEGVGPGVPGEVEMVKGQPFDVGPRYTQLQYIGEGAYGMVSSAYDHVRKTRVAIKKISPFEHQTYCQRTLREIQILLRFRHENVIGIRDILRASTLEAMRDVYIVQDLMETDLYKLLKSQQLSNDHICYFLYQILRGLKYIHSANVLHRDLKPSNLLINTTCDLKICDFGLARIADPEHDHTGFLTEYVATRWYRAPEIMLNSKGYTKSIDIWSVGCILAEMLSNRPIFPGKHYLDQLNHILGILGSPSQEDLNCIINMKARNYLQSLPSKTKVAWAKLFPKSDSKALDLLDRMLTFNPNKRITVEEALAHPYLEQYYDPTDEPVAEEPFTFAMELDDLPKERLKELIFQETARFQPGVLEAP
# Chain of UniProt P53779 (whole entry, looked up): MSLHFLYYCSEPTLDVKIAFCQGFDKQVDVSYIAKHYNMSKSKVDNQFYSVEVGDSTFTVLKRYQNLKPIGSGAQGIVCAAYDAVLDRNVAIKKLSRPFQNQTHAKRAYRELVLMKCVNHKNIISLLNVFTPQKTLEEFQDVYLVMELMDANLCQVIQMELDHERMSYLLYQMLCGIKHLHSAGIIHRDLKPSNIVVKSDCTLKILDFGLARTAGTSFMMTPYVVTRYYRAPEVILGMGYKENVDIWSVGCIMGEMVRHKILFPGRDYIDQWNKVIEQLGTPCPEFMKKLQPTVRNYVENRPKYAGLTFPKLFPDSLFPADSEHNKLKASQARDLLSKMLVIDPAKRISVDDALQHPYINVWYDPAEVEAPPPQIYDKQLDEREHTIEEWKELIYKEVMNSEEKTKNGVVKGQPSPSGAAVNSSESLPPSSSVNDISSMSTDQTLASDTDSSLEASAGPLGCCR
# Chain of UniProt P0C1S8 (whole entry, looked up): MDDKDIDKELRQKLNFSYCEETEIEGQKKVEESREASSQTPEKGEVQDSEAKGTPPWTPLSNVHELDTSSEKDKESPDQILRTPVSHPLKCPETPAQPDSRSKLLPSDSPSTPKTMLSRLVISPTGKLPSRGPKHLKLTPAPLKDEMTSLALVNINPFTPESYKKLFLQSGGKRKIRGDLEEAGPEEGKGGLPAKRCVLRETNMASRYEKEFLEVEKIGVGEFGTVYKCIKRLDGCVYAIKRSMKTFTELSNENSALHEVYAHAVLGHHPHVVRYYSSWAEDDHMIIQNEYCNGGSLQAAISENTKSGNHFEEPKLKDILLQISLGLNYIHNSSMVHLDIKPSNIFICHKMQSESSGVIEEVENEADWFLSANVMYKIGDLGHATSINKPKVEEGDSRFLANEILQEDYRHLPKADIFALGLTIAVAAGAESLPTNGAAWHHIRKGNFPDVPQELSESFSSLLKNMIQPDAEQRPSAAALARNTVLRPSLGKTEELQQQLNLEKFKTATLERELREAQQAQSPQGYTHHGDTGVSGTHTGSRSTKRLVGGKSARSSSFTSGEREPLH
# Chain of UniProt P41240 (whole entry, looked up): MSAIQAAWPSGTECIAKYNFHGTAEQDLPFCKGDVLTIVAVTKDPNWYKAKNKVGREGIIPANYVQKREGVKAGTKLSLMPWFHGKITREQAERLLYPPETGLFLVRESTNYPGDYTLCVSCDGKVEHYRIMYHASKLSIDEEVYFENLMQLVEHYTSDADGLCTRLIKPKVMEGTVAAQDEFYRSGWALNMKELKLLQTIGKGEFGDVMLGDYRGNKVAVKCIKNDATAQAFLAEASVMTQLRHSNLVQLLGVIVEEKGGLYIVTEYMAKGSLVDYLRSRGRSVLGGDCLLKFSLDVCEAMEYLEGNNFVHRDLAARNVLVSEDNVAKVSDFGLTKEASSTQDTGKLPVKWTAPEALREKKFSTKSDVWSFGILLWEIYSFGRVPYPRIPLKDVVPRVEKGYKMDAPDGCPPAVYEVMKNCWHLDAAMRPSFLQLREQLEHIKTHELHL
# Chain of UniProt P0C264 (whole entry, looked up): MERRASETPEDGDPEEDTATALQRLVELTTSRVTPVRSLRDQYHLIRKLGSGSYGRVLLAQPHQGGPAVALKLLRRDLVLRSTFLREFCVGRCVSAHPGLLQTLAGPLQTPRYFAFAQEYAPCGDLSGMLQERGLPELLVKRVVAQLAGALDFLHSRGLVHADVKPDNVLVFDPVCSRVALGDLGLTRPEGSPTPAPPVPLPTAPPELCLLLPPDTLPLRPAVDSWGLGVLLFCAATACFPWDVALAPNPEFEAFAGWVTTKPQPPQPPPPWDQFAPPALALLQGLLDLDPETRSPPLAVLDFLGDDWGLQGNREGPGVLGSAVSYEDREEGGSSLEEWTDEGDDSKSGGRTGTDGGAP
# Chain of UniProt P78356 (whole entry, looked up): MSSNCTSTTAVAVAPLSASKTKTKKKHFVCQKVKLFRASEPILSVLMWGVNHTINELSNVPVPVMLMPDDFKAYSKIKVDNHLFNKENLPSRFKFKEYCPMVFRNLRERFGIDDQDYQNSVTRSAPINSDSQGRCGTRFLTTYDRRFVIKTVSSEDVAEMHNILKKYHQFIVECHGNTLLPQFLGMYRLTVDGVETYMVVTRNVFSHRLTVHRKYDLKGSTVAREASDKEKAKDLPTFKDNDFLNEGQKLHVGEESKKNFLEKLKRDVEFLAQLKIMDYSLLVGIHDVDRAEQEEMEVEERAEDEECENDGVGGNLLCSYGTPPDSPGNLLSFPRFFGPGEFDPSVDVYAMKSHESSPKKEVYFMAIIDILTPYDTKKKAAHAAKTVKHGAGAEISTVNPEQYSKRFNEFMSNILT

# Set 1
# SMILES: CCS(=O)(=O)c1cc2cc(C[C@](O)(CC(C)(C)c3ccc(F)cc3C(N)=O)C(F)(F)F)[nH]c2cn1
# Observed: cell-free assay
# Technique: competition with immobilised ligand
# Concentration: 1 µM
target,remaining binding
"WEE2 (Homo sapiens, UniProt P0C1S8)",100%
"NEK11 (Homo sapiens, UniProt Q8NG66)",93%
"SBK3 (Homo sapiens, UniProt P0C264)",100%
"Mast/stem cell growth factor receptor Kit, autoinhibited (KIT, Homo sapiens, UniProt P10721)",89%
"MAPK10 (Homo sapiens, UniProt P53779)",100%
"TNIK (Homo sapiens, UniProt Q9UKE5)",100%
"KIT (Homo sapiens, UniProt P10721, T670I/V559D)",100%
"EGFR (Homo sapiens, UniProt P00533)",81%
"GRK7 (Homo sapiens, UniProt Q8WTQ7)",100%
"MAST1 (Homo sapiens, UniProt Q9Y2H9)",100%
"MAPK3 (Homo sapiens, UniProt P27361)",93%
"CSK (Homo sapiens, UniProt P41240)",100%
"SRMS (Homo sapiens, UniProt Q9H3Y6)",83%
"PIP4K2B (Homo sapiens, UniProt P78356)",96%
"STK17A (Homo sapiens, UniProt Q9UEE5)",80%
"INSRR (Homo sapiens, UniProt P14616)",100%
"PRKACB (Homo sapiens, UniProt P22694)",100%

# Set 2
# Cell line: mouse MPNST tumor cells
# Technique: high-content nuclear imaging
# Measured: cell number
# Concentration: 10 µM
# Time: 12 h
# Notes: mean of 2 replicates
# Relative to: plate mean
# Reading: higher = more cells
SMILES,nuclei count
CCC(C)CCCC(=O)NC(CCN)C(=O)NC(C(=O)NC(CCN)C(=O)NC1CCNC(=O)C(C(C)O)NC(=O)C(CCN)NC(=O)C(CCN)NC(=O)C(CC(C)C)NC(=O)C(CC(C)C)NC(=O)C(CCN)NC1=O)C(C)O (stereo not shown),1.67 z-score
Nc1nc(NC2CC2)c2ncn([C@H]3C=C[C@@H](CO)C3)c2n1,0.478 z-score and -0.314 z-score and 1.2 z-score
Cc1ccc2c(c1)c1c(n2CCc2ccc(C)nc2)CCN(C)C1,3.19 z-score
CCCOc1ccc2[nH]c(NC(=O)OC)nc2c1,-1.15 z-score
NS(=O)(=O)c1cc(Cl)c(Cl)c(S(N)(=O)=O)c1,0.532 z-score and 0.977 z-score
CC(NC(=O)Cc1cc(F)cc(F)c1)C(=O)NC(C(=O)OC(C)(C)C)c1ccccc1 (stereo not shown),1.15 z-score
O=C(CCCCCCC(=O)Nc1ccccc1)NO,0.153 z-score and -0.711 z-score and 0.814 z-score
CCCN(CCC)C(=O)C(CCC(=O)O)NC(=O)c1ccccc1 (stereo not shown),2.41 z-score

# Set 3
# Cell line: A-375
# Concentration: 100 µM
# Time: 18 h
SMILES,viability [%]
CCCCNC(=O)NS(=O)(=O)c1ccc(C)cc1,90.7
NCc1ccc(S(N)(=O)=O)cc1,86.6
CC(C)NCC(O)c1ccc(NS(C)(=O)=O)cc1 (stereo not shown),102
CCn1cc(C(=O)O)c(=O)c2cc(F)c(N3CCNCC3)cc21,90.2
Oc1cc(O)c(Cl)cn1,93.7
N=C(N)/N=C(\N)N1CCOCC1,101
N=C(N)c1ccc2cc(OC(=O)c3ccc(N=C(N)N)cc3)ccc2c1,88.6
c1ccc2c(c1)CCCC2C1=NCCN1 (stereo not shown),88.5

# Set 4
# Species: mouse
# Medium: microsomes or S9
# Concentration: 2 µM
# Time: 0.5 h
SMILES,remaining compound
CCNc1nc(NNC(=O)CNc2ccccc2)nc(NC(C)C)n1,18.3%
O=C(C1CCc2n[nH]c(=O)n2C1)N1CCc2ccc(F)c(F)c2C1 (stereo not shown),79.5%
c1ccc(Cn2c(CNc3nc4ccccc4n3CCN3CCOCC3)nc3ccccc32)cc1,0.0491%
CCn1nc(C)c(C2CC(=O)Nc3nc(N4CCCCC4)nc(O)c32)c1C (stereo not shown),> 99.9%
CS(=O)(=O)N(C#Cc1ccccc1F)Cc1ccccc1,< 1%
NCc1nc(COc2ccc3ccccc3c2)no1,5.26%
Cn1cnc2c(Nc3cnn(-c4ccc(Cl)cc4)c3)ncnc21,33.4%

# For quick reference, copied from above (set 3):
SMILES,viability [%]
CCn1cc(C(=O)O)c(=O)c2cc(F)c(N3CCNCC3)cc21,90.2
Oc1cc(O)c(Cl)cn1,93.7
NCc1ccc(S(N)(=O)=O)cc1,86.6
c1ccc2c(c1)CCCC2C1=NCCN1 (stereo not shown),88.5
N=C(N)c1ccc2cc(OC(=O)c3ccc(N=C(N)N)cc3)ccc2c1,88.6
CC(C)NCC(O)c1ccc(NS(C)(=O)=O)cc1 (stereo not shown),102
